Results gathered from unrelated publications.
Compare with care: the assays were run in different laboratories. Numbers after ± are the reported error.
DRD2: D(2) dopamine receptor (DRD2, Homo sapiens, UniProt P14416)
UniProt P14416, sequence (whole entry, looked up): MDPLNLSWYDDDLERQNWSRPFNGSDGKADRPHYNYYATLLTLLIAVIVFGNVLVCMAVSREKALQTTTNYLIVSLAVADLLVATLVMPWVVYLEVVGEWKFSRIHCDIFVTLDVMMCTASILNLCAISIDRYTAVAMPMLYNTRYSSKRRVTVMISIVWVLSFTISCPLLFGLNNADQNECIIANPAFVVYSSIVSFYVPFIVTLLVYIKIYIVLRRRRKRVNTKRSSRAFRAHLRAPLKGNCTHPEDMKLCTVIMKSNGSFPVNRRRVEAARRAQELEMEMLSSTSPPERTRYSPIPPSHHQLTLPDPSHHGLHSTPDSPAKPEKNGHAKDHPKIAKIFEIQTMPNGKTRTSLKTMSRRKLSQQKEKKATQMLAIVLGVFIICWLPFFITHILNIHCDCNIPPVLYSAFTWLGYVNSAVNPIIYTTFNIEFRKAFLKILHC
MCL1: Induced myeloid leukemia cell differentiation protein Mcl-1 (MCL1, Homo sapiens, UniProt Q07820)
UniProt Q07820, sequence (whole entry, looked up): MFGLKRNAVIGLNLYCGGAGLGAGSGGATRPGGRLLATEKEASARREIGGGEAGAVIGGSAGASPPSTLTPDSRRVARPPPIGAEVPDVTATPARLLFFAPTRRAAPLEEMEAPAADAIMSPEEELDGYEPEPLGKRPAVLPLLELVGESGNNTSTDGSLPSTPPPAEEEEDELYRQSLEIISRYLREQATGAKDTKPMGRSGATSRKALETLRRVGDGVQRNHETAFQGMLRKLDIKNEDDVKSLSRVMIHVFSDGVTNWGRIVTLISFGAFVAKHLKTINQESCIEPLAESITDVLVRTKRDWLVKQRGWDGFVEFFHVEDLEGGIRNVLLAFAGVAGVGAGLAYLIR
DNA polymerase catalytic subunit: DNA polymerase catalytic subunit (Human cytomegalovirus, UniProt P08546)
UniProt P08546, sequence (whole entry, looked up): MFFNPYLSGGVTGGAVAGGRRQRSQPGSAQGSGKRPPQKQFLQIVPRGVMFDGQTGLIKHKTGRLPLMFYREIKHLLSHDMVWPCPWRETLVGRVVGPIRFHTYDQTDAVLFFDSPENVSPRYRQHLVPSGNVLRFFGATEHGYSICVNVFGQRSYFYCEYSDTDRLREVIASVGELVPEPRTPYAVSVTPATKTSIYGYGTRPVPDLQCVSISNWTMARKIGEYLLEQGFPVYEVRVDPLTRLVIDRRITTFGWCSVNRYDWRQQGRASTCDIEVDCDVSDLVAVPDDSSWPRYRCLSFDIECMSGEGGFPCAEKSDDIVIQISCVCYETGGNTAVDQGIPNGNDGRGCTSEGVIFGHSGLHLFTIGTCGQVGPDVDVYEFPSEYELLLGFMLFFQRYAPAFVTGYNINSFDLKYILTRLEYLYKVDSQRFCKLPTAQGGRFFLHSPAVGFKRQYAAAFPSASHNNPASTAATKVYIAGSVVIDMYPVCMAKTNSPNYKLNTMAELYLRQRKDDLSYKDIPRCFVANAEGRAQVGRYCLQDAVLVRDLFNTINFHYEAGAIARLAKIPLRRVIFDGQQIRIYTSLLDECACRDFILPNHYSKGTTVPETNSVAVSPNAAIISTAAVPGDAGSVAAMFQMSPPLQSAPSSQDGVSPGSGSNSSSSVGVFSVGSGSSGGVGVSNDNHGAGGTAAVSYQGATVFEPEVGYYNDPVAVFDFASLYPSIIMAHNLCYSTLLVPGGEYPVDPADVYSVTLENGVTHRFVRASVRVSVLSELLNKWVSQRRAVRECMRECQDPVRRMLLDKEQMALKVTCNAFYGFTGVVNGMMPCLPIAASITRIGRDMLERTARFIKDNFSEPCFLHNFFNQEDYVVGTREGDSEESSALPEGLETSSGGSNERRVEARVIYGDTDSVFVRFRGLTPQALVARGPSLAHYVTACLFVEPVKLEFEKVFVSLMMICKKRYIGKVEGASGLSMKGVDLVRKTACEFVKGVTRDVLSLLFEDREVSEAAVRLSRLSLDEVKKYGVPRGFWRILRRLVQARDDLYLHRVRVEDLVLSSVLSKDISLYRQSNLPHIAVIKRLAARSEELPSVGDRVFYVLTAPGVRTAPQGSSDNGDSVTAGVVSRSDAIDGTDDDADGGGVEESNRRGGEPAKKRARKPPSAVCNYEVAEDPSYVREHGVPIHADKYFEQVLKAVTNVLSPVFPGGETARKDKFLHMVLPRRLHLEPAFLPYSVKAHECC
NTRK2: BDNF/NT-3 growth factors receptor (NTRK2, Homo sapiens, UniProt Q16620)
UniProt Q16620, sequence (whole entry, looked up): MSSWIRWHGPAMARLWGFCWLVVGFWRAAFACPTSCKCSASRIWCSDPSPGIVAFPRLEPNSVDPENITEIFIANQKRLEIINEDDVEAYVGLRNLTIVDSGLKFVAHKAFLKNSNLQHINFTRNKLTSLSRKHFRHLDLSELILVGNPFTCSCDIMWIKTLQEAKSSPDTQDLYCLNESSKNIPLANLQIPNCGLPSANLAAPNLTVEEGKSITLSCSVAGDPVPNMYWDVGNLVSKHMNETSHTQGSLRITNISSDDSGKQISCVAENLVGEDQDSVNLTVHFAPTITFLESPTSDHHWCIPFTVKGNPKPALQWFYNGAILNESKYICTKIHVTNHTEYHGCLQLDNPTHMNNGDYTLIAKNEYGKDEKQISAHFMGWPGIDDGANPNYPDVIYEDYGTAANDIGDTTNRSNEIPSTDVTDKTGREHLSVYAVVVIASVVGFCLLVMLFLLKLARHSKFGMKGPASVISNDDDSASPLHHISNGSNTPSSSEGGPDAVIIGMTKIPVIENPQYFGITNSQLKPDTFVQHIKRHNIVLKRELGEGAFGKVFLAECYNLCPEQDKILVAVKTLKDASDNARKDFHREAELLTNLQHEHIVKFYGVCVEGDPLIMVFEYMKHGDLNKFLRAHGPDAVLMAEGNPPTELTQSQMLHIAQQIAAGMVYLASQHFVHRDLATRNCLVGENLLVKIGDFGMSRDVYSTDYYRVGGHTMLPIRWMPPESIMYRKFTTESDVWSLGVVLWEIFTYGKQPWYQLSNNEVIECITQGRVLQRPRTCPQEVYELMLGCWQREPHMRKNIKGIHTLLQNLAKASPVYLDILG
KRAS C118S/G12V with SOS1: GTPase KRas, with SOS1 (KRAS, Homo sapiens, UniProt P01116, C118S/G12V)
CDK6 with cyclin D1: Cyclin-dependent kinase 6, with cyclin D1 (CDK6, Homo sapiens, UniProt Q00534)
UniProt Q00534, sequence (whole entry, looked up): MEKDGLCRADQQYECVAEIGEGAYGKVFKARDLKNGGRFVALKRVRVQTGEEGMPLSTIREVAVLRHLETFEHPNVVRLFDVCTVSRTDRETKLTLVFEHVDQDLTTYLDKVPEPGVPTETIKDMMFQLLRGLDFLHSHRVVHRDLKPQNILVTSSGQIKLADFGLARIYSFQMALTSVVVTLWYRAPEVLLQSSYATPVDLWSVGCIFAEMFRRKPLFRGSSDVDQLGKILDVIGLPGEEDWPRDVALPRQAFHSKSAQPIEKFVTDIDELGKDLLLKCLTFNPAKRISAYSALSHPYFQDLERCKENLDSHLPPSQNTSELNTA
CSNK1E: Casein kinase I isoform epsilon (CSNK1E, Homo sapiens, UniProt P49674)
UniProt P49674, sequence (whole entry, looked up): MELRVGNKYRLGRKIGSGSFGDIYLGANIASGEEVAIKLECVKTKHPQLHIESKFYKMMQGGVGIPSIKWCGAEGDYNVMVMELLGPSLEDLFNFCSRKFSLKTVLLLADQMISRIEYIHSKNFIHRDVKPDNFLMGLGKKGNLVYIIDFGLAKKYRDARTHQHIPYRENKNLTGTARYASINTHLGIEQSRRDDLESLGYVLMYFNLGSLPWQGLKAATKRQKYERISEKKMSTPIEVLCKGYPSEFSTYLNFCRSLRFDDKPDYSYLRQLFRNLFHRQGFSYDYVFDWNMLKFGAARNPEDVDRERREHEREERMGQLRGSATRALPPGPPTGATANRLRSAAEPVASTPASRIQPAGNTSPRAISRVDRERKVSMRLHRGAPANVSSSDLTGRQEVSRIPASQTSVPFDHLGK
60 kDa heat shock protein, mitochondrial with HSP10: 60 kDa heat shock protein, mitochondrial, with HSP10 (Homo sapiens, UniProt P10809)
TAF1L BD2: Transcription initiation factor TFIID subunit 1-like, BD2 (TAF1L, Homo sapiens, UniProt Q8IZX4)
PTGS2: Prostaglandin G/H synthase 2 (PTGS2, Homo sapiens, UniProt P35354)
UniProt P35354, sequence (whole entry, looked up): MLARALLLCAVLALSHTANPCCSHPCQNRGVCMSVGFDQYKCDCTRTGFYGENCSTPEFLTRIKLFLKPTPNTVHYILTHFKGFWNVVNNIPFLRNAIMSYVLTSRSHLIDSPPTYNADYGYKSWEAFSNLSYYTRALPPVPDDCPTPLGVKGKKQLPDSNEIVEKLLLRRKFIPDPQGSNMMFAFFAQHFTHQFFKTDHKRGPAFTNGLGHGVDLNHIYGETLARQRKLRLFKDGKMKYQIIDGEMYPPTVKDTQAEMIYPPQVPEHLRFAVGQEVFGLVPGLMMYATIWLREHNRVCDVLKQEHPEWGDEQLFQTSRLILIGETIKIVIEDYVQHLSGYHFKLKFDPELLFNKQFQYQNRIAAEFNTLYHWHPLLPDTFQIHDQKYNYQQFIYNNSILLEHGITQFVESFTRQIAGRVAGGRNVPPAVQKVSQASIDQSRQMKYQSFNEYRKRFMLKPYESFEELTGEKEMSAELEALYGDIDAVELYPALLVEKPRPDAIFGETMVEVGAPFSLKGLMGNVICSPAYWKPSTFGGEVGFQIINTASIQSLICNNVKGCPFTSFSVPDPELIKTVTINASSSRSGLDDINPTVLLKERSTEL
Lysine--tRNA ligase, cytoplasmic: Lysine--tRNA ligase, cytoplasmic (Arabidopsis thaliana, UniProt Q9ZPI1)
UniProt Q9ZPI1, sequence (whole entry, looked up): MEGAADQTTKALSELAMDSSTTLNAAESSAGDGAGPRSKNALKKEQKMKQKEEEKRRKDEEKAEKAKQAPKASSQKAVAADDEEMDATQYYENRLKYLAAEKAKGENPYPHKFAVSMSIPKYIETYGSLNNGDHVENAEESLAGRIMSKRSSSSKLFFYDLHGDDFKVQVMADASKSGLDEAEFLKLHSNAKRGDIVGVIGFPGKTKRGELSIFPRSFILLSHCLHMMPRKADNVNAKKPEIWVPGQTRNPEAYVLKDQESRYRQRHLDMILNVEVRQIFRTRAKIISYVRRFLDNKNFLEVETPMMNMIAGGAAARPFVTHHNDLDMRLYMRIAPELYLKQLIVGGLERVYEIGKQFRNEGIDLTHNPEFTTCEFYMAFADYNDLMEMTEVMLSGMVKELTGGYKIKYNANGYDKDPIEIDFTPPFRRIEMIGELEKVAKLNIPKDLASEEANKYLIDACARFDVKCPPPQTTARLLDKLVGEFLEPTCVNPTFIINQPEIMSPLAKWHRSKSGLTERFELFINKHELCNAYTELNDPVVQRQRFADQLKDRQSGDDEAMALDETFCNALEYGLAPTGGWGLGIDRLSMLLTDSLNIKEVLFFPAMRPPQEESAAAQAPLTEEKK

Compound = Cc1ccc2[nH]nc(-c3nnc(Nc4ccc(C(F)(F)F)cc4)s3)c2c1; target = α-glucosidase; assay = enzyme activity, inhibitor; setting = pH 6.8, together with: p-nitrophenyl-α-D-glucopyranoside; IC50 = 1.87 ± 0.79 µM
Compound = Cc1[nH]cc(C(=O)N(C)C)c1S(=O)(=O)Nc1ccc(C(F)(F)F)c(Cl)c1; target = DRD2; IC50 = > 100 µM
Compound = COc1ccccc1-c1nccc(COc2ccccc2C[C@@H](Nc2nccc3sc(-c4ccc(F)cc4)c(-c4ccc(OCCN5CCN(C)CC5)c(Cl)c4C)c23)C(=O)O)n1; target = MCL1; assay = binding, quench; IC50 = 0.0012 µM
Compound = CC1(F)CN(C(=O)Cn2c(=O)c(C(=O)NCc3ccc(Cl)cc3)cc3nc(N4CCNC4=O)cnc32)C1; target = DNA polymerase catalytic subunit; assay = enzyme activity; setting = single determination; IC50 = 0.327 µM
Compound = O=C(Nc1cccnn1)N1CCC(=Cc2cccc(Oc3ccc(C(F)(F)F)cn3)c2)CC1; target = Fatty-acid amide hydrolase 1 (FAAH, Homo sapiens, UniProt O00519); assay = enzyme activity, inhibitor; system = COS cells expressing human FAAH; setting = 1 h; IC50 = 0.0043 µM
Compound = Cc1ccc2[nH]nc(-c3nnc(Nc4ccc(C)c(C)c4)s3)c2c1; target = α-glucosidase; assay = enzyme activity, inhibitor; setting = pH 6.8, together with: p-nitrophenyl-α-D-glucopyranoside; IC50 = 9.82 ± 1.23 µM
Compound = Cc1cnc(-c2ccc(-c3ccc(NC(=O)Nc4c(F)cc(F)cc4F)cc3F)c3c2C(=O)NC3)[nH]1; target = NTRK2; assay = enzyme activity, inhibitor, mobility shift; setting = together with: ATP 1 mM; IC50 = 0.0084 µM
Compound = COCCN1CCN(c2nccc(-c3noc([C@@]4(C)CCCc5sc(N)c(C#N)c54)n3)n2)[C@@H](C)C1; target = KRAS C118S/G12V with SOS1; assay = KRAS G12V-SOS1 interaction, inhibitor, AlphaScreen; setting = geometric mean; IC50 = 0.131 µM
Compound = COc1ccc(-c2cc(=O)c3ccc(Nc4ncc5cc(C(=O)N(C)C)n(C6CCCC6)c5n4)cc3o2)cc1; target = CDK6 with cyclin D1; assay = inhibitor, HotSpot radiometric kinase; setting = together with: 10 µM ATP, cyclin D1; IC50 = 0.028 µM
Compound = Oc1c(-c2nc(-c3ccc(F)cc3)c(-c3ccncc3)[nH]2)ccc2ccccc12; target = CSNK1E; assay = inhibitor; IC50 = 1.63 ± 0.318 µM
Compound = Cc1ccc(NS(=O)(=O)c2c(C)[nH]c(C)c2C(=O)N2CCC(F)(F)C2)cc1N(C)C; target = DRD2; IC50 = > 100 µM
Compound = Cn1ncc2c(Cl)c(C(=O)NCc3ccccc3)cnc21; target = 60 kDa heat shock protein, mitochondrial with HSP10; assay = HSP60/10-mediated MDH refolding; setting = 5 min, preincubation before ATP, together with: denatured malate dehydrogenase; IC50 = 34 µM
Compound = Cc1cc2c(cc1N1C(=O)c3cccc4c(N5CCN(CCN(C)C)CC5)ccc(c34)C1=O)n(C)c(=O)n2C; target = TAF1L BD2; assay = HTRF; setting = GST-tagged protein; IC50 = 0.0987 µM
Compound = N#CSCCNC(=O)c1ccc(Oc2ccc(Cl)cc2NS(=O)(=O)c2ccc(Cl)c(C(F)(F)F)c2)cc1; target = C-C chemokine receptor type 5 (CCR5, Homo sapiens, UniProt P51681); assay = antagonist; system = U2OS membranes; setting = 25 °C, together with: 20 nM CCL3; IC50 = 5.57 µM
Compound = CC1(C)COc2ccc(F)cc2CN2c3nc4c(cnn4cc3OC[C@H]2C(F)F)C(=O)N1; target = NTRK2; assay = cell-based; IC50 = 0.0018 µM
Compound = Cc1[nH]c(C)c(S(=O)(=O)Nc2ccc(C(F)(F)F)c(Cl)c2)c1C(=O)N(C)Cc1ccccc1; target = DRD2; IC50 = > 100 µM
Compound = COc1cc(-c2cc(=O)c3c(O)c(OC)c(O)cc3o2)ccc1O; target = PTGS2; IC50 = 5.21 ± 0.1 µg/mL
Compound = Cc1ccc(NS(=O)(=O)c2c(C)[nH]c(C)c2C(=O)N2CC(F)(F)C(F)(F)C2)cc1Cl; target = DRD2; IC50 = > 100 µM
Compound = COc1c(N)nsc1C(=O)NCC1CCCCC1; target = Lysine--tRNA ligase, cytoplasmic; assay = enzyme activity, inhibitor; IC50 = 3.98 µM
Compound = C[C@@H]1O[C@@H](Oc2c(-c3ccc(O)c(O)c3)oc3cc(O)cc(O)c3c2=O)[C@H](O)[C@H](O)[C@H]1O; target = α-glucosidase; assay = enzyme activity; setting = together with: pNPG substrate; IC50 = 279 µg/mL
Compound = COc1ccccc1-c1nccc(COc2ccccc2C[C@@H](Nc2ncnc3sc(-c4ccc(F)cc4)c(-c4ccc(OCCN5CCN(C)CC5)c(Cl)c4C)c23)C(=O)O)n1; target = MCL1; assay = binding, quench; IC50 = 0.000303 µM
Compound = Cc1nc2ncnn2c(Nc2ccc(C(F)(F)F)cc2)c1Cl; target = Dihydroorotate dehydrogenase (quinone), mitochondrial (DHODH, Homo sapiens, UniProt Q02127); assay = enzyme activity, inhibitor; IC50 = > 100 µM
Compound = Cc1[nH]c(C)c(S(=O)(=O)Nc2ccc(C(F)(F)F)c3ncccc23)c1C(=O)N1CCC(F)(F)C1; target = DRD2; IC50 = > 100 µM
Compound = COc1ccc2c(c1OC)CN1CCc3cc4c(cc3C1=C2)OCO4; target = Hematopoietic prostaglandin D synthase (HPGDS, Homo sapiens, UniProt O60760); assay = enzyme activity, inhibitor, fluorescence polarisation; setting = 1 h, room temperature; IC50 = 3.7 ± 1.1 µM
Compound = CN1CCC[C@H]1COc1nccc(-c2noc([C@@]3(C)CCCc4sc(N)c(C#N)c43)n2)n1; target = GTPase KRas, with SOS1 (KRAS, Homo sapiens, UniProt P01116); assay = KRAS wild type-SOS1 interaction, inhibitor, AlphaScreen; setting = geometric mean; IC50 = 0.422 µM
Compound = NC(=O)CCNC(=S)NCCCC[C@H](NS(=O)(=O)c1cccc(F)c1)C(=O)N[C@@H](Cc1c[nH]c2ccccc12)C(=O)NC1CCC1; target = NAD-dependent protein deacylase sirtuin-5, mitochondrial (SIRT5, Homo sapiens, UniProt Q9NXA8); assay = enzyme activity, inhibitor; IC50 = 5.6 ± 0.7 µM
Compound = O=c1cc(-c2ccc(O)c(O)c2)oc2cc(O)c([C@@H]3O[C@H](CO)[C@@H](O)[C@H](O)[C@H]3O)c(O)c12; target = PTGS2; IC50 = 41 µM
Compound = Cc1ccc(S(=O)(=O)Nc2c(C)[nH]c(C)c2C(=O)N2CCC(F)(F)C2)cc1; target = DRD2; IC50 = > 100 µM
Compound = Cn1cnc(Cn2ccc3ccc(CNCc4[nH]c5ccccc5c4[C@H]4NC(=O)c5ccc(O)cc54)cc32)c1; target = GTPase KRas, GppNHp; with RAF1 RBD (KRAS, Homo sapiens, UniProt P01116, G12C); assay = HTRF; IC50 = 11.2 ± 2.6 µM
Compound = C[C@H]1CNCCN1c1nccc(-c2noc([C@@]3(C)CCCc4sc(N)c(C#N)c43)n2)n1; target = KRAS C118S/G12V with SOS1; assay = KRAS G12V-SOS1 interaction, inhibitor, AlphaScreen; setting = geometric mean; IC50 = 0.041 µM
Compound = Cc1cccc(-c2nc(-c3ccc(C(=O)O)cc3)[nH]c2-c2ccncc2)c1; target = CSNK1E; assay = inhibitor; IC50 = 1.06 ± 0.108 µM
Compound = Nc1nsc(C(=O)NCC2CCCCC2)c1C#CC1CC1; target = Lysine--tRNA ligase, cytoplasmic; assay = enzyme activity, inhibitor; IC50 = 63.1 µM
Compound = CN(C)C(=O)CN1CCN(c2cnc3c(cc(C(=O)NCc4ccc(Cl)cc4)c(=O)n3CC(=O)N3CC(C)(F)C3)n2)C1=O; target = DNA polymerase catalytic subunit; assay = enzyme activity, inhibitor; setting = at least duplicate; IC50 = 0.33 µM
Compound = CSc1ccc(NS(=O)(=O)c2c(C)[nH]c(C)c2C(=O)N2CCC(F)(F)C2)cc1Cl; target = DRD2; IC50 = > 100 µM
Compound = COc1cc(/C=N/n2c(C)nc3ccc(C)cc3c2=O)cc([N+](=O)[O-])c1O; target = Xanthine dehydrogenase/oxidase (XDH, Bos taurus, UniProt P80457); assay = enzyme activity, inhibitor; IC50 = 190 ± 7.68 µM
Compound = C=CC(=O)c1cccnc1Nc1cccc(C(F)(F)F)c1; target = Transcriptional enhancer factor TEF-3 (TEAD4, Homo sapiens, UniProt Q15561); assay = thiol conjugation, inhibitor, CPM; setting = pH 6.5; IC50 = 5.82 µM
Compound = COc1cc(N2CCC(N3CCN(C)CC3)CC2)ccc1Nc1ncc(Cl)c(Nc2ccccc2P(C)(C)=O)n1; target = NTRK2; assay = cell-based; IC50 = 3.15 µM
Compound = Oc1cc(Br)c(Br)c(Br)c1Oc1ccc(Br)cc1Br; target = MCL1; assay = Bak peptide binding, inhibitor, FRET (LANCE); IC50 = < 17.2 µM
Compound = Cc1c(N)nsc1C(=O)NCC1CCCCC1; target = Lysine--tRNA ligase, cytoplasmic; assay = enzyme activity, inhibitor; IC50 = 3.98 µM
Compound = CSc1ccccc1C(=O)NCCn1cc(C(=O)NCc2cccc(C)n2)c(=O)c2cc3c(cc21)OC(F)(F)O3; target = Cytochrome P450 2C19 (CYP2C19, Homo sapiens, UniProt P33261); assay = enzyme activity, inhibitor; system = human liver microsomes; setting = 20 min, 30 min NADPH preincubation, together with: mephenytoin 50 µM; IC50 = > 100 µM
Compound = Cc1c(-c2ccccc2)cc(-c2ccccc2)n1-c1ccccc1; target = PTGS2; assay = enzyme activity, inhibitor, fluorogenic resorufin; IC50 = 11.2 ± 0.2 µM
Compound = CN1CCN(c2ccc(Nc3ncc4cc(C#N)c(=O)n(C5CCCC5)c4n3)cc2)CC1; target = Cyclin-dependent kinase 5, with p35 (CDK5, Homo sapiens, UniProt Q00535); IC50 = 0.279 µM
Compound = Cc1nn(C)c2ncc(C(=O)NCC3CC(Br)=NO3)c(Cl)c12 (stereo not shown); target = 60 kDa heat shock protein, mitochondrial with HSP10; assay = HSP60/10-mediated MDH refolding; setting = 5 min, preincubation before ATP, together with: denatured malate dehydrogenase; IC50 = > 100 µM
Compound = CN(C)C(=O)c1cc2cnc(Nc3cc(C(=O)O)cc(-c4ccc5c(=O)cc(N6CCOCC6)oc5c4)c3)nc2n1C1CCCC1; target = CDK6 with cyclin D1; assay = inhibitor, HotSpot radiometric kinase; setting = together with: 10 µM ATP, cyclin D1; IC50 = 2.78 µM
Compound = CC(C)C[C@H](NC(=O)[C@H](CCc1ccccc1)NC(=O)CN1CCOCC1)C(=O)N[C@@H](Cc1ccccc1)C(=O)N[C@@H](CC(C)C)C(=O)[C@@]1(C)CO1; target = Proteasome subunit beta type-1/Psmb5, β5 subunit (Mus musculus, UniProt O09061+O55234); assay = proteasome subunit activity; system = Ba/F3 BCR-ABL1 T315I; setting = 1 h pulse; IC50 = 0.00571 ± 0.00114 µM
Compound = COc1ccc(-c2cc(=O)c3cccc(Nc4ncc5cc(C(=O)N(C)C)n(C6CCCC6)c5n4)c3o2)cc1; target = CDK6 with cyclin D1; assay = inhibitor, HotSpot radiometric kinase; setting = together with: 10 µM ATP, cyclin D1; IC50 = > 10 µM
Compound = Cc1cc2c(cc1N1C(=O)c3cccc4c(Br)ccc(c34)C1=O)n(C)c(=O)n2C; target = TAF1L BD2; assay = HTRF; setting = GST-tagged protein; IC50 = 0.0188 µM
Compound = COc1cc(N2CCC(N3CCN(C)CC3)CC2)ccc1Nc1ncc(Cl)c(Nc2ccccc2P(C)(C)=O)n1; target = Multidrug and toxin extrusion protein 2 (SLC47A2, Homo sapiens, UniProt Q86VL8); assay = transport, inhibitor; system = HEK cells transfected with SLC47A2; IC50 = 5.19 µM
Compound = CC[C@@H]1[C@H](F)C(=O)N[C@@H]1COc1nccc2cc(C(N)=O)c(OC)cc12; target = Mitogen-activated protein kinase 7 (MAPK7, Homo sapiens, UniProt Q13164); assay = ATP probe binding, KiNativ profiling, measured: Erk5 Lys2 probe site; system = THP-1 cell lysate; IC50 = > 5 µM
Compound = CCCCCCCCCOC(C)=O; target = uncharacterized protein (Spodoptera exigua, UniProt F1CEY0); assay = binding, fluorescence competitive binding; setting = together with: 1-NPN 2.0 µM; IC50 = 11.7 µM
Compound = Cc1[nH]c(C)c(S(=O)(=O)N2CCC(F)(F)C2)c1S(=O)(=O)N1CCC(F)(F)C1; target = DRD2; IC50 = > 100 µM
Compound = COc1ccc(C[C@H](N)C(=O)N[C@H]2[C@@H](O)[C@H](n3cnc4c(N(C)C)ncnc43)O[C@@H]2CO)cc1; target = Puromycin-sensitive aminopeptidase (Rattus norvegicus, UniProt F1M9V7); assay = enzyme activity, inhibitor; system = rat enzyme; IC50 = 5.4 µM
Compound = O=C(Nc1cccc(OS(=O)(=O)c2ccc(Cl)cc2)c1)c1ccc2ncccc2c1; target = P2X purinoceptor 7 (P2RX7, Homo sapiens, UniProt Q99572); assay = calcium mobilization, antagonist; system = MCF7 transfected with P2RX7; setting = together with: 100 µM BzATP; IC50 = 0.813 ± 0.083 µM
Compound = Cc1cc2c(cc1N1C(=O)c3cccc4c(N5CCN(C)CC5)ccc(c34)C1=O)n(C)c(=O)n2C; target = TAF1L BD2; assay = HTRF; setting = GST-tagged protein; IC50 = 0.0193 µM
Compound = COc1ccccc1-c1nc(-c2ccc(F)cc2)c(-c2ccncc2)[nH]1; target = CSNK1E; assay = inhibitor; IC50 = 0.268 ± 0.0109 µM
